Results of several laboratories.
Numbered parts are unrelated; each lists some results of a single study.
Chain of UniProt Q8IY84 (whole entry, looked up): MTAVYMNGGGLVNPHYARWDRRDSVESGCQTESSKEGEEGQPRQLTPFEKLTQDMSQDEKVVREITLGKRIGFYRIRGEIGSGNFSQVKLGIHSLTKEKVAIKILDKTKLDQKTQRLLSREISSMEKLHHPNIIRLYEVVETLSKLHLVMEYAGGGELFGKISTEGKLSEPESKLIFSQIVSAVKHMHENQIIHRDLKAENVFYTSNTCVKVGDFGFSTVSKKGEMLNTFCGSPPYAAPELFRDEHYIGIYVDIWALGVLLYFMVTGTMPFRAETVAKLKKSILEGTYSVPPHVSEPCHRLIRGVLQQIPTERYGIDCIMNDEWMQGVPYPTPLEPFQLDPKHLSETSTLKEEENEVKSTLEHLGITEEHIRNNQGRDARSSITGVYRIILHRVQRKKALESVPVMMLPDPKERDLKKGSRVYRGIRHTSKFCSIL
Chain of UniProt Q86UE8 (whole entry, looked up): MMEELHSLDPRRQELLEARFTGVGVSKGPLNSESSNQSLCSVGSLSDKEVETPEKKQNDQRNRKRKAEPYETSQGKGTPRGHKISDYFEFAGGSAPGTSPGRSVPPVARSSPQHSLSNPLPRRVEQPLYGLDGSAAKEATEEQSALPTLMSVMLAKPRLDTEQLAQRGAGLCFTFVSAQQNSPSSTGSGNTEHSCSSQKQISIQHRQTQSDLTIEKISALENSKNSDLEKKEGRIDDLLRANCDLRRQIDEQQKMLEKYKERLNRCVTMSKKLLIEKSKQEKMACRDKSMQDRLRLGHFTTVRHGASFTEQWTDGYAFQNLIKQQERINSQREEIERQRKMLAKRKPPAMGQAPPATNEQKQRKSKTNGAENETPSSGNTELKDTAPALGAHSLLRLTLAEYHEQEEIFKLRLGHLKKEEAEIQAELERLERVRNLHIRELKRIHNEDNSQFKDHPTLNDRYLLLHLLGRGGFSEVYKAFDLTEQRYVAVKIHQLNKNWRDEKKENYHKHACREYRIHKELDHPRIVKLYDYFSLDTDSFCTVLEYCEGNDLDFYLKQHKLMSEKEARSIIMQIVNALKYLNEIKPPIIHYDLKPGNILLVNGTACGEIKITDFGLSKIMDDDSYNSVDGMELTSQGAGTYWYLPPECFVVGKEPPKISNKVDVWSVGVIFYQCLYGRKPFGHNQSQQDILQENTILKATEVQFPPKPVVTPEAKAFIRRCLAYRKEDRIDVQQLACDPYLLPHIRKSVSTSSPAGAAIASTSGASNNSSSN
Chain of UniProt O60285 (whole entry, looked up): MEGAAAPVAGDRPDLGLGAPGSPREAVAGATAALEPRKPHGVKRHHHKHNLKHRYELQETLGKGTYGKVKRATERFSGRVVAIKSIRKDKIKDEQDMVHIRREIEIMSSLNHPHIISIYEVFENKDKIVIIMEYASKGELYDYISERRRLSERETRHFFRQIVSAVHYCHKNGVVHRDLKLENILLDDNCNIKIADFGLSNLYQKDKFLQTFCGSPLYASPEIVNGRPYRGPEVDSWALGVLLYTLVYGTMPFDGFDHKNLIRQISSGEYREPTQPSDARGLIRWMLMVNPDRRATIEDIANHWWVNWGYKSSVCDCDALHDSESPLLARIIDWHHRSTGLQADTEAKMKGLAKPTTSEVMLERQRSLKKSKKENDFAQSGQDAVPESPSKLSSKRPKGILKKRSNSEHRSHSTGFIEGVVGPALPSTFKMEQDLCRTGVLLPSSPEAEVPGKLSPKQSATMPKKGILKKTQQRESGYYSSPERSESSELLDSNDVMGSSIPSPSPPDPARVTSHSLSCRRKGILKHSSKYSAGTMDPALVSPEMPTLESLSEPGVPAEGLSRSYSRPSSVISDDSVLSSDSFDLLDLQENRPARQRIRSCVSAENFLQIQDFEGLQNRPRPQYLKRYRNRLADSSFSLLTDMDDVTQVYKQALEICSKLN
Chain of UniProt Q7KZI7 (whole entry, looked up): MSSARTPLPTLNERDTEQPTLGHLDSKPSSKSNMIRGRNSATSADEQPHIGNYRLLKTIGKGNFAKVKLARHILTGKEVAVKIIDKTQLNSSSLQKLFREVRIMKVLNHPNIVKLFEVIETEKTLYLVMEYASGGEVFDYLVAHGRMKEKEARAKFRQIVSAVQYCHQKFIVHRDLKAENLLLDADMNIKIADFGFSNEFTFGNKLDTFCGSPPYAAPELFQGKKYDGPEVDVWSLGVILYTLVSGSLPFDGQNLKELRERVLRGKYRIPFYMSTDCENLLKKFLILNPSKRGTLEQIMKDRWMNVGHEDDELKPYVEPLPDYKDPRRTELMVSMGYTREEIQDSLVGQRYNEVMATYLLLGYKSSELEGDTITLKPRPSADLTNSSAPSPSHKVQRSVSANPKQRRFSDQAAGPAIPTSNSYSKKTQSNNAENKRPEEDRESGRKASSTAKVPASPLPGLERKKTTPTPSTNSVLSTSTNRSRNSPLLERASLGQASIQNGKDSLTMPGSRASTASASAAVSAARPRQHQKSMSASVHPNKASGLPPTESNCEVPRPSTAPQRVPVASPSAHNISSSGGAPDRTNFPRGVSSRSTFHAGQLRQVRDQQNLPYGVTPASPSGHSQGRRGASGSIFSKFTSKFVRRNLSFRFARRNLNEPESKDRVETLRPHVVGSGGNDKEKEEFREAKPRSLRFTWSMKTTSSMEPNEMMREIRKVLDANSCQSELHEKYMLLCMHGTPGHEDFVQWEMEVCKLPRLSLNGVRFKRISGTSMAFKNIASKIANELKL
Chain of UniProt P28482 (whole entry, looked up): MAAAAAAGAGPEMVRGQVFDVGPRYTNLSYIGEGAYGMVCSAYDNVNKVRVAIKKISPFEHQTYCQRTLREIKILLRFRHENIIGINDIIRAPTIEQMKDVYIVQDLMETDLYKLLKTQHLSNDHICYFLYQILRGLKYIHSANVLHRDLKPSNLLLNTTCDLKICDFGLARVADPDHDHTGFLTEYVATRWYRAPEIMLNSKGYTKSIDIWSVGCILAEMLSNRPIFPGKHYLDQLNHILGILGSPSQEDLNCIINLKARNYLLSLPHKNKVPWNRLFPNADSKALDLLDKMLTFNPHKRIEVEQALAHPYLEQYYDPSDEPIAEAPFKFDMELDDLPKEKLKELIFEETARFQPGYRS
Chain of UniProt Q15759 (whole entry, looked up): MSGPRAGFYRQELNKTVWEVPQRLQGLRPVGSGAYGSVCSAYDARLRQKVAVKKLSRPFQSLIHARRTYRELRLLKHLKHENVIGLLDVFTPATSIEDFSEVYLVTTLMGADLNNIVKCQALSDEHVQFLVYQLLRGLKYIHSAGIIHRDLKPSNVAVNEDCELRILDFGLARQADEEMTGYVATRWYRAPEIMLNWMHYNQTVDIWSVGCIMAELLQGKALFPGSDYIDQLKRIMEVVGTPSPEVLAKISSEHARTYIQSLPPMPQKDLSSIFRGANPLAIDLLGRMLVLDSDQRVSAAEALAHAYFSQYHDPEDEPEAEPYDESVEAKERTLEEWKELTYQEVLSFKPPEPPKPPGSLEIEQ
Chain of UniProt Q15418 (whole entry, looked up): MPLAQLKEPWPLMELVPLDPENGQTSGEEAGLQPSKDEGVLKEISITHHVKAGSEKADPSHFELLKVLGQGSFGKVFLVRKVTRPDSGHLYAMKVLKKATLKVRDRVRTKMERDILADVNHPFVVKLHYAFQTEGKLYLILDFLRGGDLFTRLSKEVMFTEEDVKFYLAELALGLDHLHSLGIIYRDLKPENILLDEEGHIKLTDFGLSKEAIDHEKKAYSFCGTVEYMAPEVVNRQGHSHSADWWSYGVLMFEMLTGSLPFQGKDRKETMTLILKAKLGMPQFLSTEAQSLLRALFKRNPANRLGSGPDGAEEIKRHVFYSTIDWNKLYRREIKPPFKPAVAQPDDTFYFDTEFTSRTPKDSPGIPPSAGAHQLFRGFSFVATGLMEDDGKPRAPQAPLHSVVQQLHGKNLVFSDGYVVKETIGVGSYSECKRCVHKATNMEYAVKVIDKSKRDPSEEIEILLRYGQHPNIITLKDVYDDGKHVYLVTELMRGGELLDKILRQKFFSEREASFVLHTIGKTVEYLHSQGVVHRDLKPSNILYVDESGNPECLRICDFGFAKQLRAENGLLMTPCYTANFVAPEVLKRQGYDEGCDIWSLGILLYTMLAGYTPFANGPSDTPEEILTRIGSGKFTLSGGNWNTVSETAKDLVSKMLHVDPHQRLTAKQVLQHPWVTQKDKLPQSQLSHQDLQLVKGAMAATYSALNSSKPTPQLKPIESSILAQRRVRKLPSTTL
Chain of UniProt Q96L34 (whole entry, looked up): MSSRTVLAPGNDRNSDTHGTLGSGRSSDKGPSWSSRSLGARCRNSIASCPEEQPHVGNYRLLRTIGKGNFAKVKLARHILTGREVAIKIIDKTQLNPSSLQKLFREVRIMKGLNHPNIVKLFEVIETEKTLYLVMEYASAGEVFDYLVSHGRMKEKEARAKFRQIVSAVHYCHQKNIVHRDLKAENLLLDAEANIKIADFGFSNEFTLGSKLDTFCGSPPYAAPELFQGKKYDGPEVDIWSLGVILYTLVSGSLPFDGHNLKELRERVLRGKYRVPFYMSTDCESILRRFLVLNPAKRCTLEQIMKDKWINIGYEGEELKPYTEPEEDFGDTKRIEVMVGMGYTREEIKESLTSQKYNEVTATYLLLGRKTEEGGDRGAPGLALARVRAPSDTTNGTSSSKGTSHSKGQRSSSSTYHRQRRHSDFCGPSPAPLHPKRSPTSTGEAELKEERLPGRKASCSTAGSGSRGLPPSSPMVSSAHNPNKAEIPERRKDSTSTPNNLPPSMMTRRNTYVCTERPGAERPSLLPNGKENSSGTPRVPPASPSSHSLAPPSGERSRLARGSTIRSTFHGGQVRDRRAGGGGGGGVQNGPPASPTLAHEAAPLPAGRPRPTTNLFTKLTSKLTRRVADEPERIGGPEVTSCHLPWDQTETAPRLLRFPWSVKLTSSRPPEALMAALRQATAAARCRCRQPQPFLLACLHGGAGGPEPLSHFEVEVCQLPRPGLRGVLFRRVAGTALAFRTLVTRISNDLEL

Sample 1
SMILES: CCC(=O)N[C@@H]1CC[C@H](C(=O)N(C)c2ccc(-c3nc4ccccc4o3)cc2)C1
Read-out: cell-free assay
Method: competition with immobilised ligand
Concentration: 1 µM
MAP4K2 (Homo sapiens, UniProt Q12851) — remaining binding: 100%.
For NUAK2 (Homo sapiens, UniProt Q9H093): remaining binding read 100%.
NUAK1 (Homo sapiens, UniProt O60285) — remaining binding: 100%.
It gave 99% for remaining binding (NIM1K (Homo sapiens, UniProt Q8IY84)).
It gave 100% for remaining binding (PIK3CA (Homo sapiens, UniProt P42336, I800L)).
Ribosomal protein S6 kinase alpha-1, C-terminal kinase domain (RPS6KA1, Homo sapiens, UniProt Q15418) — remaining binding: 100%.
The remaining binding was 100% (ABL2 (Homo sapiens, UniProt P42684)).
The remaining binding was 98% (PRKD1 (Homo sapiens, UniProt Q15139)).
For MAP3K4 (Homo sapiens, UniProt Q9Y6R4): remaining binding read 83%.

Sample 2
SMILES: COc1ccc(-c2c(Nc3ccccn3)[nH]c3c(C4=CCCCC4)c(-c4ccccc4)nn3c2=O)cc1
Medium: plasma
Route: oral
It gave 10300 ng/mL for “plasma concentration, mean” (LC-MS/MS; human; 200 mg twice daily, 0.5 h).
human patients; 100 mg once daily, 24 h, cycle 1 — “plasma concentration, mean”: 3540 ng/mL.
cancer patients; 200 mg, 1 h post-dose, single dose — “plasma concentration, mean”: 406 ng/mL.
cancer patients; 50 mg, 4 h post-dose, single dose — “plasma concentration, mean”: 478 ng/mL.
It gave 383 ng/mL for “plasma concentration, mean” (cancer patients; 50 mg, 8 h post-dose, single dose).
cancer patients; 150 mg, 3 h post-dose, single dose — “plasma concentration, mean”: 1460 ng/mL.
For LC-MS/MS; human; 50 mg once daily, 6 h, cycle 1: “plasma concentration, mean” read 1610 ng/mL.
The “plasma concentration, mean” was 6120 ng/mL (human patients; 150 mg once daily, 2 h, cycle 1).
For cancer patients; 100 mg, 0.5 h post-dose, single dose: “plasma concentration, mean” read 86.2 ng/mL.
The “plasma concentration, mean” was 985 ng/mL (cancer patients; 100 mg, 6 h post-dose, single dose).
LC-MS/MS; human; 200 mg twice daily, 2 h, single dose — “plasma concentration, mean”: 1230 ng/mL.
LC-MS/MS; human; 50 mg once daily, 24 h, cycle 1 — “plasma concentration, mean”: 1140 ng/mL.
The “plasma concentration, mean” was 4340 ng/mL (human patients; 400 mg once daily, 3 h, cycle 1).

Sample 3
Organism: Plasmodium berghei
Action: inhibitor
Cells: Huh-7
Strain: GFP-expressing sporozoites, liver stage
Concentration: 10 µM
Time: 24 h
Reference: untreated control
For CCOC(=O)[C@H](CCc1ccccc1)N[C@H]1CCc2ccccc2N(CC(=O)O)C1=O, the infection rate was 75%.
CCN(CC)Cc1cc(Nc2ccnc3cc(Cl)ccc23)ccc1O has an infection rate of 46%.
CN(C(=O)C(Cl)Cl)c1ccc(OC(=O)c2ccco2)cc1 has an infection rate of 88.5%.
With CO/N=C(\C(=O)N[C@@H]1C(=O)N2C(C(=O)OCOC(=O)C(C)(C)C)=C(/C=C\c3scnc3C)CS[C@H]12)c1csc(N)n1 the infection rate was 57.5%.
For C[C@@H]1CC2C3CCC4=CC(=O)C=C[C@]4(C)[C@@]3(F)[C@@H](O)C[C@]2(C)[C@H]1C(=O)CO (stereo partly shown), the infection rate was 113%.
The infection rate of CC(=O)Oc1ccc(C(c2ccc(OC(C)=O)cc2)c2ccccn2)cc1 is reported as 97.1%.
For Cc1cc(=O)n(-c2ccccc2)n1C, the infection rate was 101%.
With O=c1ccc2ccccc2o1 the infection rate was 27.7%.
The infection rate of NCCc1ccc(O)c(O)c1 is reported as 93%.
CC[N+](CC)(CC(=O)Nc1c(C)cccc1C)Cc1ccccc1 has an infection rate of 86.7%.
The infection rate of CN(C)CCOC(c1ccc(Cl)cc1)c1ccccn1 (stereo not shown) is reported as 129%.
With C[N+](C)(C)CC(=O)O the infection rate was 103%.

Sample 4
Compound: Clc1ccc(Nc2nnc(Cc3ccncc3)c3ccccc23)cc1
Read-out: enzyme activity
Action: inhibitor
Concentration: 0.5 µM
Reference: control
The remaining activity was 104% (MARK4 (Homo sapiens, UniProt Q96L34)).
MAP2K1 (Homo sapiens, UniProt Q02750) — remaining activity: 100%.
For Myosin-IIIb (MYO3B, Homo sapiens, UniProt Q8WXR4): remaining activity read 102%.
The remaining activity was 100% (PLK3 (Homo sapiens, UniProt Q9H4B4)).
The remaining activity was 102% (TLK2 (Homo sapiens, UniProt Q86UE8)).
The remaining activity was 104% (Cyclin-dependent kinase 9, with cyclin K (CDK9, Homo sapiens, UniProt P50750)).
MAPK11 (Homo sapiens, UniProt Q15759) — remaining activity: 96.9%.
For DDR2 (Homo sapiens, UniProt Q16832): remaining activity read 97.1%.
For DCLK2 (Homo sapiens, UniProt Q8N568): remaining activity read 100%.
The remaining activity was 99.5% (CDC42BPB (Homo sapiens, UniProt Q9Y5S2)).
For MAPK1 (Homo sapiens, UniProt P28482): remaining activity read 87.6%.
MARK2 (Homo sapiens, UniProt Q7KZI7) — remaining activity: 133%.
The remaining activity was 94% (MET (Homo sapiens, UniProt P08581)).
NEK3 (Homo sapiens, UniProt P51956) — remaining activity: 94.1%.
PNCK (Homo sapiens, UniProt Q6P2M8) — remaining activity: 103%.
The remaining activity was 108% (CLK4 (Homo sapiens, UniProt Q9HAZ1)).
It gave 104% for remaining activity (MINK1 (Homo sapiens, UniProt Q8N4C8)).
For TXK (Homo sapiens, UniProt P42681): remaining activity read 110%.
PRKG2 (Homo sapiens, UniProt Q13237) — remaining activity: 101%.
It gave 91.3% for remaining activity (GRK4 (Homo sapiens, UniProt P32298)).
For Cyclin-dependent kinase 1, with cyclin A (CDK1, Homo sapiens, UniProt P06493): remaining activity read 105%.
The remaining activity was 104% (AKT2 (Homo sapiens, UniProt P31751)).
The remaining activity was 98.2% (MAPK14 (Homo sapiens, UniProt Q16539)).
The remaining activity was 110% (ROCK1 (Homo sapiens, UniProt Q13464)).

Some of these lines once more (sample 3):
With CO/N=C(\C(=O)N[C@@H]1C(=O)N2C(C(=O)OCOC(=O)C(C)(C)C)=C(/C=C\c3scnc3C)CS[C@H]12)c1csc(N)n1 the infection rate was 57.5%.
For C[C@@H]1CC2C3CCC4=CC(=O)C=C[C@]4(C)[C@@]3(F)[C@@H](O)C[C@]2(C)[C@H]1C(=O)CO (stereo partly shown), the infection rate was 113%.
The infection rate of CC(=O)Oc1ccc(C(c2ccc(OC(C)=O)cc2)c2ccccn2)cc1 is reported as 97.1%.
For Cc1cc(=O)n(-c2ccccc2)n1C, the infection rate was 101%.
With O=c1ccc2ccccc2o1 the infection rate was 27.7%.
The infection rate of NCCc1ccc(O)c(O)c1 is reported as 93%.
CC[N+](CC)(CC(=O)Nc1c(C)cccc1C)Cc1ccccc1 has an infection rate of 86.7%.
The infection rate of CN(C)CCOC(c1ccc(Cl)cc1)c1ccccn1 (stereo not shown) is reported as 129%.
